Published values pooled from the literature.
Parts stem from different laboratories: compare values within a part only. Substitutions count along the parent as printed.

Series 1
Target: ABI1, truncated, D143A, DHFR fusion (Arabidopsis thaliana)
Technique: DHFR PCA, deep sequencing
Sample: yeast
Notes: methotrexate growth selection, single substitutions
With: (+)-ABA 200 µM
Relative to: wild-type fitted maximum
Direction: higher = stronger binding
Starting sequence: PYL1, truncated, DHFR fusion (Arabidopsis thaliana); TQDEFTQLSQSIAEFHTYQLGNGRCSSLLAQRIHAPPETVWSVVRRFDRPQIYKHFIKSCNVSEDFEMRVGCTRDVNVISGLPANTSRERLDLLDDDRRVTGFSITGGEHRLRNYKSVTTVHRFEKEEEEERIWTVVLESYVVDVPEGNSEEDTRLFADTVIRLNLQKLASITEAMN
Substitution	relative binding score
I52Q	96.5%
Q19G	94%
Y115E	-27.3%
E64W	92.4%
S80P	34.6%
T1P	97.7%
S117T	28.9%
R113N	93.6%
H16L	15.6%

Series 2
Target: CCND2, cyclin fold, Cln2 fusion (human)
Technique: yeast growth competition, sequencing
Sample: yeast
Notes: weak parent motif
Relative to: not given
Direction: higher = stronger binding
Starting sequence: SAMHD1 docking peptide (human); ASKSRVQLFKDDP; partner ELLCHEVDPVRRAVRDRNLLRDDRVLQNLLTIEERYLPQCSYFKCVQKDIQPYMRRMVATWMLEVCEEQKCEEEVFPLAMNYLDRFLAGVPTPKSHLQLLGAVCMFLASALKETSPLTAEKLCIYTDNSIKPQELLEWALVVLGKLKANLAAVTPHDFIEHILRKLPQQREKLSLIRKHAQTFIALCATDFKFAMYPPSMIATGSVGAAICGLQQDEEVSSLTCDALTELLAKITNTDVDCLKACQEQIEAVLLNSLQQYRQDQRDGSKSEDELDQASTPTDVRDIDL
Substitution	normalised enrichment score
D11W	-0.0239
S2D	-0.0294
D11N	-0.243
D12K	0.0952
S2F	0.193
K10Y	-0.0904
D11A	-0.0599
L8T	0.0558
D12C	-0.37
L8F	0.0465
R5W	0.379
K3L	0.516
V6W	-0.257

Series 3
Target: RNA binding protein fox-1 homolog 2, RRM domain, GST-SBP tag (RBFOX2, Homo sapiens, UniProt O43251-10, residues 100-194)
Technique: RNA Bind-n-Seq
Form: RNA
Sample: in vitro
Concentration: 365 nM
Notes: natural RNA segment, single round, ends assumed
Relative to: no-protein control
Direction: higher = stronger binding
Target sequence (chain): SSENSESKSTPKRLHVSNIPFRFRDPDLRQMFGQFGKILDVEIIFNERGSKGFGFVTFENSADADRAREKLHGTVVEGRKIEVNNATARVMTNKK
Strand	RBNS enrichment (R)
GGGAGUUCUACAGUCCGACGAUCUGUGGGAGCUCAGCUCGCUGCCCAGGGAUAGGUAUGACCUAUGUCUGCCUUAGGCUGCUGGGAGAUGCCAUUCUCCAGUUUCAGAAGCAGGCAGGGCAAAGGUCAAGACUUGGAAUUCUCGGGUGCCAA	0.292
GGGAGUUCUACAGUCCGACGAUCGCUGGGGGUGAGGAGACAACAAACCUCGGGAACUGGAGCCAGAGCUGCGGCCUGACUGACGCCUUUUGAUGCUCACGGGAAAUUUCUGCCCAGGAUCUCAGCCCCAGGCUUGGAAUUCUCGGGUGCCAA	0.322
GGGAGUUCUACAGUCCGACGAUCGGUCAUUUUUUGUAAUUUUCUUUUUAAUUACUUUAGAGAGCUAGGGAUGCAAAUGUUUUCAGUUAGAAAGCCUUUAUUUACUUUUGGAAAUUGAACAAGAAAUGCAUCUGUGGAAUUCUCGGGUGCCAA	0.758
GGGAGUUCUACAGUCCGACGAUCCUGGCAUGGUGAUAUAACUGAAAUCCCUGCACUUGGGAGGGUCACAAGUUUGAGGACCACCUUGGUGUAUAUAAGCAUGAUCUUUGUUCACACAUAAAAGAGAGAGGGAGUGGAAUUCUCGGGUGCCAA	35.1
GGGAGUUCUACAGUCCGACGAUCCCAAUGCAUAGUUUGGCAGAAAAAUCAGCCGUUCAUUUAGAAGAAUCUUAGCAGAGAUUGGGAUGCCUUACUCAAUAAAGCUAAGAUGACUAUGCUGCUGGCUGUCUUUGUGGAAUUCUCGGGUGCCAA	0.664
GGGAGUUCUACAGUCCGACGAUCCAUAAACAUGACAGGCUUUUGGACUUUGUAUUACCUGUAUGUUUUAUAAUGGAUCAUGCAUAAUUUCUCAGGAGAAUAAAAUGAGAAUUCAUAUAUACGUUCAUCUUUCAUGGAAUUCUCGGGUGCCAA	1.3
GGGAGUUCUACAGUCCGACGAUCUUUUUUUCUGUUUAUCAUGUUGAAUUUCAUUGACUUAAUUAGUCUUUAAAUUUGAAAACAUGUUUUAGGGAGUUUAGUUCUAGAAAUUUCUCUUAGAUUGAAGUGACAGAUGGAAUUCUCGGGUGCCAA	0.533
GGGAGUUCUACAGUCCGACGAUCAGGAGGGUGCACAUAACCCUUACCCUACCUCUGCCAAAAAGUGGGGGCUGUACUGGGGACUGCUCGGAUGAUCUUUCUUAGUGCUACUUCUUUCAGCUGUCCCUGUAGCGUGGAAUUCUCGGGUGCCAA	0.412
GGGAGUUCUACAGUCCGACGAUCUGAGAAGCCUCCACAGCAGGACCACACCACCACCACCGACUCAGAGAUGGAGGAGCCCUACCUGCAAGGAUCCAAAGAGGAGGGCACUCCCCUCAAACUCAAGUGUGAGCUGGAAUUCUCGGGUGCCAA	0.373
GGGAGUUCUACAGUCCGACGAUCCCCCUUCUCUGUCCCCCAUUCUCUGAAUGCUGCUUUCUCUGGCUUGUUUCCUACAGUGGGGGCCUGUGGGGUUGAGUCUUGAGGAAUCCCCUCAAAUGAGAAGGCCUUGGUGGAAUUCUCGGGUGCCAA	0.531
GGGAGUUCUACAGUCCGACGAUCGUGUAGUUUUCUGUUUUAAAUCCCCCACCCCUGGCUGGGCUCAGUGGCUCACCCCUGUAAUCCCAGCACUUUGGGAGGCCAAGGCGGGUCGAUUACUUGAGGUCAGGAGUUGGAAUUCUCGGGUGCCAA	0.466
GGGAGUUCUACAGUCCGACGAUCAUUUGCCAGAGGGGACAGAAGCAUCUUGUGGCAUUUCCCAUGUGGUGGCCUCCAUGGCACCCACUCUCCCAGUUCCUAUGCAGGUUAUCCCCUGUGGUUUCUCCCCACAUUGGAAUUCUCGGGUGCCAA	1.03

Single results of other studies
Molecule	target	assay	system	conditions	how to read	endpoint	value
PhoQ, residues 284 288 289 292 302 303 SSTMSV	PhoP, residues 12 14 15 18 19 YHFSH (Escherichia coli, UniProt P23836)	Sort-seq, refers to: YFP reporter	E. coli	PhoQ-PhoP variant library, with: 10 µM Mg2+	relative to: high Mg2+ state, higher = stronger signaling	fold induction	8.5

Excerpt of the above (series 3):
Strand	RBNS enrichment (R)
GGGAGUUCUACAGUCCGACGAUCGGUCAUUUUUUGUAAUUUUCUUUUUAAUUACUUUAGAGAGCUAGGGAUGCAAAUGUUUUCAGUUAGAAAGCCUUUAUUUACUUUUGGAAAUUGAACAAGAAAUGCAUCUGUGGAAUUCUCGGGUGCCAA	0.758
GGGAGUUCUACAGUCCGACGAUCCUGGCAUGGUGAUAUAACUGAAAUCCCUGCACUUGGGAGGGUCACAAGUUUGAGGACCACCUUGGUGUAUAUAAGCAUGAUCUUUGUUCACACAUAAAAGAGAGAGGGAGUGGAAUUCUCGGGUGCCAA	35.1
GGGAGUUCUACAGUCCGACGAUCCCAAUGCAUAGUUUGGCAGAAAAAUCAGCCGUUCAUUUAGAAGAAUCUUAGCAGAGAUUGGGAUGCCUUACUCAAUAAAGCUAAGAUGACUAUGCUGCUGGCUGUCUUUGUGGAAUUCUCGGGUGCCAA	0.664
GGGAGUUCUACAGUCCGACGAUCCAUAAACAUGACAGGCUUUUGGACUUUGUAUUACCUGUAUGUUUUAUAAUGGAUCAUGCAUAAUUUCUCAGGAGAAUAAAAUGAGAAUUCAUAUAUACGUUCAUCUUUCAUGGAAUUCUCGGGUGCCAA	1.3
